Published values gathered from unrelated publications.
Protocols differ between the studies behind these lines. “And” joins repeats or separate records; there may be more than shown. ± marks the error that the study gave.

Structure (SMILES) | tested on | assay | system | setting | how to read | measurement | value
CCCCCCCCCCCCCCCC(NCc1ccccc1O)=C1C(=O)OC(CO)C1=O (centres unmarked) | G2-synchronized tsFT210 cells | flow cytometry | – | 50 µM, 4 h, 32 °C, release from G2 arrest | – | G1 phase cells | 30.5%
CCc1c(-c2ccccc2)c(-c2ccccc2)nn1-c1ccccc1-c1cccc(OCC(=O)O)c1 | mouse bone marrow macrophages | osteoclast differentiation, inhibitor, TRAP staining | – | 30 µM, with: M-CSF and RANKL | – | normalized response | 0%
C=CC(=O)N1CCC[C@@H](n2nc(-c3ccc(Oc4ccccc4)cc3)c3c(N)ncnc32)C1 | REC-BTK^KO-OE | cell growth | – | 72 h | – | GI50 | 6.05 µM
Clc1nc(NCc2ccco2)c2[nH]cnc2n1 | FD iPSC-derived cardiomyocytes | alternative splicing, RNA-seq, measured: FANCL exon chr2(-):58162865-58162947 | – | unit not given | reference: DMSO minus compound | ΔPSI | -0.302
COc1cnc2cccc(N3CCc4c(cc(Cn5ccnc5C)cc4-c4cn(C)nc4C(F)(F)F)C3=O)c2c1 | HARA | cell growth | – | 120 h | – | EC50 | 5.37 µM
CSc1cc(Oc2ccnc3[nH]c(=O)cnc23)ccc1NC(=O)Nc1cc(C(C)(C)C)nn1-c1ccccc1 | mean of patient lines P1-P3 | reverse phase protein array, measured: mTOR phosphosite 2448 | – | 1 µM, 4 h | reference: DMSO | phospho/total mTOR ratio | 0.72
O=S(=O)(NCCNC/C=C/c1ccc(Br)cc1)c1cccc2cnccc12 | Neuro2a | inhibitor, RT-qPCR | – | concentration not given, with: BRP 100 µg/mL | – | Fos mRNA level | inhibited
O=C(/C=C/C=C/C=C/C1CCCCC1)NC1=C[C@@](O)(/C=C/C=C/C=C/C(=O)NC2=C(O)CCC2=O)[C@@H]2O[C@@H]2C1=O | WM-115 | cell growth, CellTiter-Glo | – | 78 h | – | GI50 | 29.7 µM
Cn1cc(-c2ccc(-c3cncc(Cl)c3N3CCC4(CCNC4=O)CC3)cc2)cn1 | COLO 205 | gene expression, microarray, measured: FAM65C mRNA | – | concentration not given, 2 h | reference: untreated cells | log2 fold change | -1.75
CCCCN1C[C@H](O)[C@@H](O)[C@@H](O)[C@H]1CO | sample C patient fibroblasts | Gb3 level lowering, LC-MS/MS, measured: Gb3 d18:1/24:0 | – | 216 h | – | IC50 | 4.1 µM
CCOC(=O)CSc1nc(-c2ccc(Cl)cc2)c2c(NC(=O)c3ccccc3)nnc-2[nH]1 | TK-10 | SRB | – | 10 µM, NCI60 single-dose screen | reference: untreated | cell growth | 125%
Br.CN(C)c1nc(=Nc2cccc(Cl)c2)ss1 | LDR | silenced CMV-GFP reporter derepression, qHTS | – | – | – | efficacy | 118%
CCc1ccc(NC(=O)Nc2c[nH]c3ccccc23)cc1 | RAW-ISG | RT-qPCR, measured: IFNB1 | – | 10 µM, unit not given, with: HT-DNA | reference: relative | mRNA level | 0.0305
O=C1N=C(N2CCCCC2)S/C1=C\c1cccnc1 | NG108-cl | clomeleon fluorescence, measured: intracellular chloride reduction | – | 5 h | – | EC50 | inactive
C[N+](C)(C)CC(O)CC(=O)[O-] (centres unmarked) | – | binding, MIDAS equilibrium dialysis LC-MS | A2AR-BRIL thermostabilized | concentration not given | reference: no-protein control | log2 fold change | -0.199
COc1cc2ncnc(Nc3ccc(Oc4ccccc4)cc3C)c2cc1OC.O=C(O)C(F)(F)F | MeWo (NF1) | cell viability, resazurin | – | 0.3 µM, 72 h, with: trametinib 0 nM | – | average fractional effect | 1.76%
CCCCCCOC(=O)[C@]1(O)C[C@@H]2O[C@@]1(C)n1c3ccccc3c3c4c(c5c6ccccc6n2c5c31)C(=O)NC4 | SK-OV-3 | ATP | 3D spheroid culture | 10 µM, 4 days, with: GA-017 10 µM | reference: DMSO | relative cell number | 188%
Cn1cnc2c1c(=O)n(CC(=O)Nc1c(Cl)cccc1Cl)c(=O)n2C | Vero | MTT | – | 1000 µg/mL | – | cytotoxicity | 92%
CC(=O)N[C@@H](CSC(=O)[C@]1([C@@H](O)C(C)C)NC(=O)[C@H](C)[C@@H]1O)C(=O)O | LDR | silenced CMV-GFP reporter derepression, qHTS | – | – | – | efficacy | 52%
CCCCC1(CCCC)CN(c2ccccc2)c2cc(SC)c(OCC(=O)N[C@@H](C(=O)NCC(=O)O)c3ccccc3)cc2S(=O)(=O)C1 | differentiated Caco-2 | ELISA | – | 1 µM, compound pre-incubation, with: 0.6 mM post-operative bile acid pools | – | FGF19 secretion | decreased
COc1ccc(C(=O)/C=C/Sc2nc3ccccc3o2)cc1 | LDR | silenced CMV-GFP reporter derepression, qHTS | – | – | – | efficacy | 78%
O=P1(C2CCCCC2)CCCCC1 | SW480 | ELISA | – | IC50, 72 h | – | IL-6 level | 2.7 ± 0.28 pg/mL
COc1ccc(-n2nc(C(C)=O)s/c2=N\N=C(/C)c2ccc(NC(=O)c3ccc(C)cc3)cc2)cc1 | HepG2 | – | – | 0.078 µM | – | toxicity | 0.182%
CCn1cc(-c2cc(Cn3ccnc3)cc3c2CCN([C@H](c2cc(OC)ccn2)C2CC2)C3=O)c(C(F)(F)F)n1 | NCI-H1838 | cell growth, inhibitor | – | 120 h | – | EC50 | > 30 µM
Nc1ncnc2c1ncn2[C@@H]1O[C@H](CO)[C@@H](O)[C@H]1O | activated human T cells | – | – | 31.6 µM | higher = more proliferation | T cell proliferation | 12.6 a.u. and 7.5 a.u. and 8 a.u.

Structure (SMILES) | tested on | assay | system | setting | how to read | measurement | value
CC(C)C[C@@H](C=O)NC(=O)[C@H](CC(C)C)NC(=O)[C@H](CC(C)C)NC(=O)OCc1ccccc1 | LDR | silenced CMV-GFP reporter derepression, qHTS | – | – | – | efficacy | 171%
Cn1cc(C2=C(c3ccc(Cl)cc3Cl)C(=O)NC2=O)c2ccccc21 | primary human cortical neurons | Western blot, measured: Tau phospho-Ser199 | – | 5 µM, 48 h, with: HIV Tat 100 ng/mL and maraviroc 2.5 µM | reference: Tat-treated cells, decrease | Tau phosphorylation | 12 fold
Cc1cnc2ccc3c(c2n1)N1CCC(O)N=C1N3C (centres unmarked) | BALB/c 3T3 | colony forming efficiency | – | 10 µM | – | colony number | 0 colonies per plate
Cc1cc(N2CCN(c3ccc([N+](=O)[O-])c4cccnc34)CC2)c2ccccc2n1 | LDR | silenced CMV-GFP reporter derepression, qHTS | – | – | – | efficacy | 169%
C=Cc1c2[n-]c(c1C)/C=c1\[n-]/c(c(C)c1C=C)=C\c1[n-]c(c(CCC(=O)O)c1C)/C=c1\[n-]c(c(C)c1CCC(=O)O)=C2.[Sn+4] | SH-SY5Y | RNA-seq, measured: SERPINE1 mRNA | – | 5 µM, 5 h | reference: untreated cells | fold change | 2.28
Cn1cc(Nc2nccc(-c3ccc4c(c3)CN(C3COC3)CC[C@H]4NC(=O)c3cn(C(C)(C)C)nn3)n2)cn1 | mouse splenic B cells | measured: TWEAK signalling | – | 30 mg/kg, IgD-activated in vivo | reference: vehicle, direction not given | pathway activation z-score | 2.53
c1ccc2[nH]ccc2c1 | HCT-8 | RNA-seq, measured: TSC22D3 | – | concentration not given | – | mRNA level, LS mean | 20.9 counts per million
Cc1nc(N(Cc2ccccc2)c2ccc3c(c2)/C(=C/c2ccccc2)C(=O)N3Cc2ccccc2)c2ccccc2n1 (mixture of isomers) | LLC | – | – | 2.0 µM, 24 h | reference: untreated | reduction of wound healing rate | 38.1%
CC/C(=N\NC(=O)NCc1cccc(O)c1)c1ccc(O)c(C)c1O | SK-OV-3 | Western blot, measured: TAZ | – | 10 µM, 6 h, 2D culture, unit not given | reference: β-actin | protein level | 1.66 ± 0.88
COc1ccc2c(N(C)c3ccc(/C(C)=N/OCCN)cc3)c3c(Cl)coc3nc2c1 | RWPE-1 | immunoblot | – | 1 µM, 72 h, steroid-reduced medium | – | Bax protein increase | 100%
C/C=C/c1ccc(OCC(=O)OCC(=O)NC2CC2)c(OC)c1 | LDR | silenced CMV-GFP reporter derepression, qHTS | – | – | – | efficacy | 58%
CCCCS(=N)(=O)CCC(N)C(=O)O (centres unmarked) | OVCAR-5 | LC-ESI-MS/MS, measured: glutathione | – | 100 µM, 12 h | reference: untreated | remaining GSH | 0.9%
CC(=O)Nc1cccc(-n2c(=O)n(C3CC3)c(=O)c3c(Nc4ccc(I)cc4F)n(C)c(=O)c(C)c32)c1 | MeWo (NF1) | cell viability, resazurin | – | 1.56 nM, 72 h | reference: DMSO | average fractional effect | 11%
O=S(=O)(NNc1nnc(Cl)c2ccccc12)c1ccc(F)cc1 | Vero | MTT | – | 31.25 µg/mL | – | cytotoxicity | 0.16%
C[C@H]1[C@H](OC(=O)CCC(=O)O)O[C@@H]2O[C@@]3(C)CC[C@H]4[C@H](C)CC[C@@H]1[C@@]24OO3 | human primary cardiac fibroblasts | Sirius red | – | 5 µM, 48 h, with: TGF-β1 5 ng/mL | – | collagen secretion | decreased
Nc1cccc2c1CN(C1CCC(=O)NC1=O)C2=O (centres unmarked) | bone marrow CD138+ myeloma cells | XTT | – | 1.6 µM, mean of three patients | – | viability | 25%
CCC(CO)C(=O)O (centres unmarked) | – | binding, MIDAS equilibrium dialysis LC-MS | A2AR-BRIL thermostabilized | concentration not given | reference: no-protein control | log2 fold change | -0.0127
CCn1cc(-c2cc(Cn3ccoc3=N)cc3c2CCN([C@@H](C)c2cc(OC)ccn2)C3=O)c(C(F)(F)F)n1 | NCI-H1838 | cell growth, inhibitor | – | 120 h | – | EC50 | 4.76 µM
CSCC[C@H](NC(=O)[C@H](Cc1ccc(OS(=O)(=O)O)cc1)NC(=O)[C@@H](N)CC(=O)O)C(=O)NCC(=O)N[C@@H](Cc1c[nH]c2ccccc12)C(=O)N[C@@H](CCSC)C(=O)N[C@@H](CC(=O)O)C(=O)N[C@@H](Cc1ccccc1)C(N)=O | HEK293T control virus | agonist, calcium mobilization | – | 3.2 nM, no receptor expressed | higher = more calcium release | calcium response | 0.099 a.u. and 0.0777 a.u.
Cc1cc(Nc2ncc(Cl)c(Nc3ccccc3S(=O)(=O)C(C)C)n2)c(OC(C)C)cc1C1CCNCC1 | CLB-GE | phosphoproteomics LC-MS/MS, measured: BOD1L phosphorylation | – | 200 nM, 60 min | reference: untreated | log2 fold change | -1.62
CCCCc1nc(Cl)c(CO)n1Cc1ccc(-c2ccccc2-c2nn[nH]n2)cc1 | human PBMC | RNA-seq, measured: CXCL8 mRNA | – | 10 µg/mL, 24 h | reference: untreated control | log2 fold change | 2.4
CCCCN1CCN(c2ccc3[nH]c(-c4ccc5[nH]c(-c6cc(OC)c(OC)c(OC)c6)nc5c4)nc3c2)CC1 | TK-10 | SRB | – | 10 µM, 48 h | – | growth percent | 131%
CC(C)NCC(O)c1ccc(O)c(O)c1 (centres unmarked) | mouse ventricular cardiomyocytes | – | – | dose not given, 0.351 s | – | sarcomere length | 1.8 µm
C[C@H](Nc1ccc2c(c1)OCCn1cc(N3C(=O)OC[C@H]3C(F)F)nc1-2)C(N)=O | MDA-MB-361 | cell growth, CellTiter-Glo | – | 120 h | – | Hill coefficient GR curve | 1.14
COc1cc(/C=C/C(=O)N2CCC=CC2=O)cc(OC)c1OC | MDA-MB-468 | qRT-PCR, measured: DAPK1 | – | 30 µM, 6 h | reference: time zero | mRNA level | 84.7 ± 23.2%

For quick reference, copied from above:
Structure (SMILES) | tested on | assay | system | setting | how to read | measurement | value
CSCC[C@H](NC(=O)[C@H](Cc1ccc(OS(=O)(=O)O)cc1)NC(=O)[C@@H](N)CC(=O)O)C(=O)NCC(=O)N[C@@H](Cc1c[nH]c2ccccc12)C(=O)N[C@@H](CCSC)C(=O)N[C@@H](CC(=O)O)C(=O)N[C@@H](Cc1ccccc1)C(N)=O | HEK293T control virus | agonist, calcium mobilization | – | 3.2 nM, no receptor expressed | higher = more calcium release | calcium response | 0.099 a.u. and 0.0777 a.u.
Cc1cc(Nc2ncc(Cl)c(Nc3ccccc3S(=O)(=O)C(C)C)n2)c(OC(C)C)cc1C1CCNCC1 | CLB-GE | phosphoproteomics LC-MS/MS, measured: BOD1L phosphorylation | – | 200 nM, 60 min | reference: untreated | log2 fold change | -1.62
CCCCc1nc(Cl)c(CO)n1Cc1ccc(-c2ccccc2-c2nn[nH]n2)cc1 | human PBMC | RNA-seq, measured: CXCL8 mRNA | – | 10 µg/mL, 24 h | reference: untreated control | log2 fold change | 2.4
CCCCN1CCN(c2ccc3[nH]c(-c4ccc5[nH]c(-c6cc(OC)c(OC)c(OC)c6)nc5c4)nc3c2)CC1 | TK-10 | SRB | – | 10 µM, 48 h | – | growth percent | 131%
CC(C)NCC(O)c1ccc(O)c(O)c1 (centres unmarked) | mouse ventricular cardiomyocytes | – | – | dose not given, 0.351 s | – | sarcomere length | 1.8 µm
C[C@H](Nc1ccc2c(c1)OCCn1cc(N3C(=O)OC[C@H]3C(F)F)nc1-2)C(N)=O | MDA-MB-361 | cell growth, CellTiter-Glo | – | 120 h | – | Hill coefficient GR curve | 1.14
COc1cc(/C=C/C(=O)N2CCC=CC2=O)cc(OC)c1OC | MDA-MB-468 | qRT-PCR, measured: DAPK1 | – | 30 µM, 6 h | reference: time zero | mRNA level | 84.7 ± 23.2%
